Published values of several laboratories.
Compare with care: the assays were run in different laboratories. “And” joins repeats or separate records; there may be more than shown. ± gives the spread as reported.
Histone acetyltransferase RTT109 with Vps75: Histone acetyltransferase RTT109, with Vps75 (Saccharomyces cerevisiae, UniProt Q07794)
ADRA2C: Alpha-2C adrenergic receptor (ADRA2C, Homo sapiens, UniProt P18825)

CC[C@H](C)[C@H](NC(=O)[C@H](Cc1ccc(OP(=O)(O)O)cc1)NC(=O)[C@H](CC(N)=O)NC(=O)[C@H](CC(C)C)NC(=O)[C@@H](N)CO)C(=O)N[C@@H](CC(=O)O)C(=O)N[C@@H](CC(C)C)C(=O)N[C@@H](CC(=O)O)C(=O)N[C@@H](CC(C)C)C(=O)N[C@H](C(=O)N[C@@H](CCCCN)C(=O)O)C(C)C — EC50 (PTPN11 (Homo sapiens, UniProt Q06124, R4D/S502P); enzyme activity, activator; pH 7.0, 2% DMSO, added: DiFMUP 100 µM, phosphopeptide): 300 ± 100 nM
COc1ccc(Sc2nsc(N)n2)cc1 — IC50 (Histone acetyltransferase RTT109 with Vps75; enzyme activity, inhibitor, HTS, CPM-based, dose response): > 125000 nM
CCCCC[C@H](O)/C=C/[C@H]1[C@H](O)CC(=O)[C@@H]1C/C=C\CCCC(=O)O — EC50 (PTGER1 (Homo sapiens, UniProt P34995, L125A); IP1 accumulation, agonist; AD293; EP1 L125A mutant): 53.6 nM
Nc1ncnc2c1ncn2[C@@H]1O[C@H](COP(=O)(O)OP(=O)(O)OP(=O)(O)O)[C@@H](O)[C@H]1O — EC50 (P2X purinoceptor 1 (P2RX1, Homo sapiens, UniProt P51575, K136E/K138D); ion current, agonist, two-electrode voltage clamp; 2): 2150 nM
O=S1(=O)CC(S(=O)(=O)Nc2ccccc2-c2cccs2)c2ccccc21 (centres unmarked) — IC50 (Histone acetyltransferase RTT109 with Vps75; enzyme activity, inhibitor, HTS, CPM-based, dose response): > 125000 nM
O=C1Nc2c(ccc(Cl)c2Cl)C1=NO — EC50 (KCNN4/CALM1 (Homo sapiens, UniProt O15554+P0DP23, L185A/S181A); ion current, activator, whole-cell patch clamp): 1100 nM
COc1cc(Nc2ncc3c(n2)-c2ccc(Cl)cc2C(c2c(F)cccc2OC)=NC3)ccc1C(=O)NCCOCCOCCNC(=O)COc1cccc2c1C(=O)N(C1CCC(=O)NC1=O)C2=O (centres unmarked) — EC50 (ACAD10 (Homo sapiens, UniProt Q6JQN1); binding, kinobead competition; MV4-11 cell lysate): 278 nM
CCn1c(-c2nc3cc(C(=O)N4CCC[C@@H](N)C4)cc(OC)c3n2C)cc2cccnc21 — EC50 (ADRA2C; agonist, TR-FRET): > 31600 nM
CC=C(C#N)C(=O)N1CCC[C@@H](n2nc(-c3ccc(Oc4ccccc4)cc3)c3c(N)ncnc32)C1 — EC50 (BTK (Homo sapiens, UniProt Q06187); target occupancy, PP-BODIPY competition labelling; Ramos; 1 h): 14.7 ± 3.5 nM
Nc1ccc(CNc2ccncc2)c(F)c1 — EC50 (ADRA2C; agonist, FLIPR reporter; reporter cell line): 900 nM
O=C(Nc1ccc([N+](=O)[O-])cc1Cl)c1cc(Cl)ccc1O — EC50 (Anoctamin-1 (Ano1, Mus musculus, UniProt Q8BHY3); ion current, patch clamp; HEK293T): 1270 ± 20 nM
Nc1nc(CCc2ccc(Cl)cc2)nn1S(=O)(=O)c1ccc2ncsc2c1 — EC50 (Lysophospholipase-like protein 1 (Mus musculus, UniProt Q3UFF7); enzyme activity, activator, gel-based ABPP): 9800 nM
Cc1nn(-c2nc3c(F)cc(F)cc3s2)c(O)c1C(c1ccccc1C(=O)O)c1c(C)nn(-c2nc3c(F)cc(F)cc3s2)c1O — EC50 (Cyclic GMP-AMP synthase, catalytic domain; with DNA (CGAS, Homo sapiens, UniProt Q8N884); cGAS phase separation, inhibitor): 1010 nM and 1460 nM
Cn1cnc2ccc(Nc3c(F)ccc(NS(=O)(=O)N4CC(F)C4)c3Cl)c(Cl)c2c1=O — EC50 (RAF1 (Homo sapiens, UniProt P04049); target engagement, isothermal dose-response CETSA, LC-MS; A-375; 30 min, 37 °C, wild type): 350 nM
C[C@H](CCC(C)(C)O)[C@H]1CC[C@H]2[C@@H]3CC=C4C[C@@](C)(O)CC[C@]4(C)[C@H]3CC[C@]12C — EC50 (Glutamate NMDA receptor; GRIN1/GRIN2A (Homo sapiens, UniProt Q05586+Q12879); ion current, positive modulator, automated patch clamp; HEK293 (stable line); added: glutamate 0.8 µM and glycine): 124 nM
CC(=O)c1cc([N+](=O)[O-])c(Sc2cccc(Cl)c2Cl)s1 — EC50 (CAPN1 (Homo sapiens, UniProt P07384); enzyme activity, inhibitor): > 50000 nM
CCC(C)(C)C(=O)C(=O)N1CCCC[C@H]1C(=O)N[C@H](CCc1ccc(OC)cc1)C(=O)N1[C@@H]2CC[C@H]1C[C@H](Nc1nc(NCCc3sc(N)nc3C)nc(N3CCn4ncnc4C3)n1)C2 — EC50 (FKBP1A (Homo sapiens, UniProt P62942); binding, TR-FRET): 30000 nM
